# Assay results gathered from unrelated publications.
# Each numbered part is a random draw from the data of one study; scales do not carry over between parts. Values joined by “and” are separate records of one study, mostly repeats; a detail may differ.
# Chain of UniProt Q9UBE8 (whole entry, looked up): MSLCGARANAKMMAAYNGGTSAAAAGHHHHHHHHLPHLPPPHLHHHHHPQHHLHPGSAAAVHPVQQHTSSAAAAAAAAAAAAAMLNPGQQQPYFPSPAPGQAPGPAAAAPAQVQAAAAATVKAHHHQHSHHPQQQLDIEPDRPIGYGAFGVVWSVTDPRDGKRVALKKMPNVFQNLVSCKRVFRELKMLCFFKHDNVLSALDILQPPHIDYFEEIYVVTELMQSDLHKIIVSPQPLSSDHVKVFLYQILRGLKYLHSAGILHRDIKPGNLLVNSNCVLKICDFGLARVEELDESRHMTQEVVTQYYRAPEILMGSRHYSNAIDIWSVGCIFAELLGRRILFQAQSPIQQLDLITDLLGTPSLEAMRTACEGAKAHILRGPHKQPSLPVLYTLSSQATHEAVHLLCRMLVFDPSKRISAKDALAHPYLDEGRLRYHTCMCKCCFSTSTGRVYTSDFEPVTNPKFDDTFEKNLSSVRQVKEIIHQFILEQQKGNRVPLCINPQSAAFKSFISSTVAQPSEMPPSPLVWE
# Chain of UniProt P78362 (whole entry, looked up): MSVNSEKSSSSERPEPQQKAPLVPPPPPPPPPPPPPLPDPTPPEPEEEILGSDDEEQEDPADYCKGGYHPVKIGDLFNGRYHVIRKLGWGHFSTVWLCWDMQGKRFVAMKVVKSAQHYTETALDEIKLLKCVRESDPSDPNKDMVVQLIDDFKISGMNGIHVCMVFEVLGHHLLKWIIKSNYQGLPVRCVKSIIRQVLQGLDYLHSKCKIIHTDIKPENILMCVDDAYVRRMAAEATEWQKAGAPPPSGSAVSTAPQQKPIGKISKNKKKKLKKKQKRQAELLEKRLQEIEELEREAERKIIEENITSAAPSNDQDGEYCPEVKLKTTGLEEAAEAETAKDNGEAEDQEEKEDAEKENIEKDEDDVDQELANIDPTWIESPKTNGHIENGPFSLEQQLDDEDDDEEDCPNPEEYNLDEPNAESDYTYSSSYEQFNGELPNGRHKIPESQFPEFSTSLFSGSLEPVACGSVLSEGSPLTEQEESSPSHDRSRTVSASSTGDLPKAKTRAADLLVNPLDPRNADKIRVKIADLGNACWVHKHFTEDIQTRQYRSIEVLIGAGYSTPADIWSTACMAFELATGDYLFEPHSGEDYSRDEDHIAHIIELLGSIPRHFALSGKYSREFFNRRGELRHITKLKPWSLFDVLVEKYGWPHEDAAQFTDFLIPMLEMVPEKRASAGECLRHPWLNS
# Chain of UniProt Q8TDC3 (whole entry, looked up): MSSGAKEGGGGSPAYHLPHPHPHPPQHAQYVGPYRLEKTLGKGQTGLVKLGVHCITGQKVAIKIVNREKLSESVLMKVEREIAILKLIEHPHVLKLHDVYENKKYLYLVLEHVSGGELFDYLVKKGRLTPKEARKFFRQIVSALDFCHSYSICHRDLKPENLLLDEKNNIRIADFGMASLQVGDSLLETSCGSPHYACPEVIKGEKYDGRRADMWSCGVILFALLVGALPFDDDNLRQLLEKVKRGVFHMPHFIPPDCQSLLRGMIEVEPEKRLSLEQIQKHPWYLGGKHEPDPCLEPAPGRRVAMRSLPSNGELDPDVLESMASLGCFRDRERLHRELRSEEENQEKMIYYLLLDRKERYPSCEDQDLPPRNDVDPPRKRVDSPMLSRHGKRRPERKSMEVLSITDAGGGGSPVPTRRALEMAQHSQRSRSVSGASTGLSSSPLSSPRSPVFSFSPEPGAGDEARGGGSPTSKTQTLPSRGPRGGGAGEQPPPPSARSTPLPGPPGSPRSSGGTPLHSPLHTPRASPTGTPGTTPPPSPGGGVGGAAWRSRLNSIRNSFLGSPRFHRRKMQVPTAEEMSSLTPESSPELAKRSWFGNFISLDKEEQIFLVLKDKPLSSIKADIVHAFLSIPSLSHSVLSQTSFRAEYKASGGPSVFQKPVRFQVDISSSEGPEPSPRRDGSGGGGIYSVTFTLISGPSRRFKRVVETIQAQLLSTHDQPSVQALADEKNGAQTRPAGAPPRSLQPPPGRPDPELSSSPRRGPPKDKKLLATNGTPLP
# Chain of UniProt Q15349 (whole entry, looked up): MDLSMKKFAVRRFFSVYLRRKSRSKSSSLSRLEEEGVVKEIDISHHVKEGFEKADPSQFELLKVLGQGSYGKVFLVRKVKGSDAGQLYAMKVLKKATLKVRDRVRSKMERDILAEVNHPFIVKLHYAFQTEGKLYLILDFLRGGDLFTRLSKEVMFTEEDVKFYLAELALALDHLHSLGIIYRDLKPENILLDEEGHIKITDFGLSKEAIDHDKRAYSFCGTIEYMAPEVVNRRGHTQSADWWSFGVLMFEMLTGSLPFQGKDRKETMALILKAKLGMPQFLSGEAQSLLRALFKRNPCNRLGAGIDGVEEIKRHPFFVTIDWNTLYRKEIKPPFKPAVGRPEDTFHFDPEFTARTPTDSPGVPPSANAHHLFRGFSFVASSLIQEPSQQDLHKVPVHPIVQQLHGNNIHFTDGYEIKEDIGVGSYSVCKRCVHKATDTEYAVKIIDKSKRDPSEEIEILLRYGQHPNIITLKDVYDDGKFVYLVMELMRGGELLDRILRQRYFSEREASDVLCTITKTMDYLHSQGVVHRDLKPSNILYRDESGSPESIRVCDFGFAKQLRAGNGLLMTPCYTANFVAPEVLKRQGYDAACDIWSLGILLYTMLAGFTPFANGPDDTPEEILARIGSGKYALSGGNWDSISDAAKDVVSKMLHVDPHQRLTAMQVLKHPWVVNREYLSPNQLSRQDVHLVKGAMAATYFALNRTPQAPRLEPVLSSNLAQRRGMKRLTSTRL
# Chain of UniProt Q9NYY3 (whole entry, looked up): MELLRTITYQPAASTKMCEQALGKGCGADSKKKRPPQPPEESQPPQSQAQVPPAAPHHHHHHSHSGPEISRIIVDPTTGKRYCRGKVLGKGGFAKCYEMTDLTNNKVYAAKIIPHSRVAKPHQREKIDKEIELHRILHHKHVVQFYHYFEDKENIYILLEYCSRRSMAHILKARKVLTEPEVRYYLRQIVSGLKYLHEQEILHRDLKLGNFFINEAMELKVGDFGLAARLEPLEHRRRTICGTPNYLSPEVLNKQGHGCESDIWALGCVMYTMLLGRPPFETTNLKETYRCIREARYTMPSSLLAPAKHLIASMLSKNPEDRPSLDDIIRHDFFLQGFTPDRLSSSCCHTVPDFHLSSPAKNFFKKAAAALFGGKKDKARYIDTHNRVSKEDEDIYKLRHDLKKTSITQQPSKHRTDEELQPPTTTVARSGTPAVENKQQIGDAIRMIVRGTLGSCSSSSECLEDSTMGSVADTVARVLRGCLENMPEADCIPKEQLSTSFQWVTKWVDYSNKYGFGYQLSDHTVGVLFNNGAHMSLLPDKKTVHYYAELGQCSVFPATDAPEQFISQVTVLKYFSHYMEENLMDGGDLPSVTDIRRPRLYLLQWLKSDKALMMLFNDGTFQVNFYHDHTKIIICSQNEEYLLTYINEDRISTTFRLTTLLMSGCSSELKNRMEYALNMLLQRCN
# Chain of UniProt Q13546 (whole entry, looked up): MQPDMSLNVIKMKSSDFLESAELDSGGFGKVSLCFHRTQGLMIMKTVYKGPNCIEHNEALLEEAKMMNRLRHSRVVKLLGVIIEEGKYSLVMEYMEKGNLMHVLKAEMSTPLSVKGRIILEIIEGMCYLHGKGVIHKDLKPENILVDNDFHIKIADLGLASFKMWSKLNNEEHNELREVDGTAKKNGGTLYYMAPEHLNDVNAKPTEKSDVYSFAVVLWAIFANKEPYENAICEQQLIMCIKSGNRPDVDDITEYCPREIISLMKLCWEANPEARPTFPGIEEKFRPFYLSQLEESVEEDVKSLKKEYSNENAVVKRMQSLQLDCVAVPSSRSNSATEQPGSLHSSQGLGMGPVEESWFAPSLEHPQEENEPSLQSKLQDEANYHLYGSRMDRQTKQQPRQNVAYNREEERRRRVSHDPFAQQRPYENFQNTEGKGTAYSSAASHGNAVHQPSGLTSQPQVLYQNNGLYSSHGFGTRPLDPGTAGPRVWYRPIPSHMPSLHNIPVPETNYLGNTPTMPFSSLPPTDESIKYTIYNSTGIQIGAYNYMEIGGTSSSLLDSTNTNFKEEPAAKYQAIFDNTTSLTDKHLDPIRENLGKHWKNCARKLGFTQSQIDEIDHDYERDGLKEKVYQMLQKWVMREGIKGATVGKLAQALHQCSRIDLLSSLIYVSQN
# Chain of UniProt P10721 (whole entry, unmodified, looked up): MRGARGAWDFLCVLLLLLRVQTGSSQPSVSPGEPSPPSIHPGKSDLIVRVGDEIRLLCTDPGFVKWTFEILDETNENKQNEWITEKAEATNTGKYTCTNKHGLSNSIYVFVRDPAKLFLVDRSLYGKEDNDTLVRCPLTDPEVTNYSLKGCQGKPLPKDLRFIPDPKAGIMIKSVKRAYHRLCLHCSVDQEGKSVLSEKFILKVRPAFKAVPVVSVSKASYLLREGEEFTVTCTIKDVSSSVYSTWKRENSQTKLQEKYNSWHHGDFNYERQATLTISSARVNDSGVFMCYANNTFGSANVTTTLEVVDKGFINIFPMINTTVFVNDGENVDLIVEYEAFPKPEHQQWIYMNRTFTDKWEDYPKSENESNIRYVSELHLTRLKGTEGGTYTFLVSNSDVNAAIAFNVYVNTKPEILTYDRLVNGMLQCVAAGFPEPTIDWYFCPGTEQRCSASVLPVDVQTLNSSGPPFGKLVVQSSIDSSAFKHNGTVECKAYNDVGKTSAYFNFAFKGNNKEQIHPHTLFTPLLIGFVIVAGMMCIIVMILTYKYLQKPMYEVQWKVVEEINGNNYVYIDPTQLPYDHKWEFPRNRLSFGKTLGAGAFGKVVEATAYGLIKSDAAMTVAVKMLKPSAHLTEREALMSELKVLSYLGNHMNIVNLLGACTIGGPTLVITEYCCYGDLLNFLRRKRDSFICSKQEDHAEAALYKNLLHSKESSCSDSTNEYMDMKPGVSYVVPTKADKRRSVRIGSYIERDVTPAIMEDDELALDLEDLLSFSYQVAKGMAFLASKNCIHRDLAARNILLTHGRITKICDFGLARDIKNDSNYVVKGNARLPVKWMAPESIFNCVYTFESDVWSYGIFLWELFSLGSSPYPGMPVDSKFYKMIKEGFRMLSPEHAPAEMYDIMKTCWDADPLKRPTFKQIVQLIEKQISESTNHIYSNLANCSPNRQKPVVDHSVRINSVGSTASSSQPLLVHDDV

# Study 1 — cell line: mouse MPNST tumor cells; method: high-content nuclear imaging; item: cell number; tested at: 10 µM; time: 12 h; notes: mean of 2 replicates; relative to: plate mean; reading: higher = more cells
SMILES,nuclei count
Cc1ccc(CC2(O)CCN(CCOc3ccc(O)cc3)CC2)cc1,-0.674 z-score
Cc1ccc(C(C)C)cc2c(C)ccc1-2,-1.19 z-score
CCCCCNC(=N)N/N=C/c1c[nH]c2ccc(OC)cc12,-4.45 z-score
CCCN1CCC=C(c2cc(-c3ccc(C)cc3)no2)C1,3.04 z-score
CC(C)(C)c1ccc(C(=O)Nc2cn3cc(-n4ccnc4)ccc3n2)cc1,1.86 z-score
Cc1cnc(C(=O)O)c[n+]1[O-],0.29 z-score and 1.17 z-score
COc1ccc(C(=O)c2ccccc2O)c(O)c1,-0.0748 z-score
NC(=O)c1ccc(-c2nc(-c3ccccn3)c(-c3ccc4c(c3)OCO4)[nH]2)cc1,-2.93 z-score
N#CC(CCCN1CCN(/N=C/c2cccnc2)CC1)(c1ccccc1)c1ccccc1,-0.978 z-score
CC1(C)[C@@H](OC(=O)CCC(=O)O)CC[C@]2(C)[C@H]3C(=O)C=C4[C@@H]5C[C@@](C)(C(=O)O)CC[C@]5(C)CC[C@@]4(C)[C@]3(C)CC[C@@H]12,0.403 z-score
Cc1ccc(NC(=O)c2cccc(N(C)C)c2)cc1NC(=O)c1ccc(O)cc1,2.11 z-score
COc1cccc(NC(=O)/C=C/c2ccc(Cl)cc2)c1,4.02 z-score
CCC(c1ccccc1)c1c(O)c2ccccc2oc1=O (centres unmarked),1.64 z-score
COC(=O)CCc1ccc(OCC(O)CNC(C)C)cc1 (centres unmarked),0.462 z-score
O=C(O)[C@@H]1[C@H](C(=O)O)NCCN1C(=O)c1ccc2c(ccc3ccccc32)c1.O=C(O)[C@H]1NCCN(C(=O)c2ccc3c(ccc4ccccc43)c2)[C@H]1C(=O)O,0.0722 z-score

# Study 2 — read-out: enzyme activity; action: inhibitor; tested at: 0.5 µM; relative to: control
# Target: Beta-adrenergic receptor kinase 1 (GRK2, Homo sapiens, UniProt P25098)
# Target sequence (P25098 1-689): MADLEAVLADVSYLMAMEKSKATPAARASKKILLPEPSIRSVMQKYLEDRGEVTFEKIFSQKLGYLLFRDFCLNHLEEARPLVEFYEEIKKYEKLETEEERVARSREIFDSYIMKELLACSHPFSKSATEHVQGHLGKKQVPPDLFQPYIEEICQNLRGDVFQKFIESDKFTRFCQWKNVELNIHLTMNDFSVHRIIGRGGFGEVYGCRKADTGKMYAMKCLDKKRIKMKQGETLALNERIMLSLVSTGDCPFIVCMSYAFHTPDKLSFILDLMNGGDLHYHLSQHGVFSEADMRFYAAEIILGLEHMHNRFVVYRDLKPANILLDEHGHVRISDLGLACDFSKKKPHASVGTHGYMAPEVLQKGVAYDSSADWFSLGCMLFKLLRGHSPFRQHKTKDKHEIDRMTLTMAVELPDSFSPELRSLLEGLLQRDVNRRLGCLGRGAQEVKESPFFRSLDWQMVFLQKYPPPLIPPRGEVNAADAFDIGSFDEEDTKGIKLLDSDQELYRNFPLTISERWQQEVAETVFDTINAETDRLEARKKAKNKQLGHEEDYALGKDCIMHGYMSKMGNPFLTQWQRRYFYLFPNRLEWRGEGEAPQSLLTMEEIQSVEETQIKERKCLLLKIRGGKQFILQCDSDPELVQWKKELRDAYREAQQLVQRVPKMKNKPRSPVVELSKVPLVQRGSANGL
Structure (SMILES),remaining activity [%]
CC(C)c1nn(-c2c(Cl)cccc2Cl)c2nc(Cc3ccc(OCCO)cc3)[nH]c(=O)c12,94.8
COc1ccc(-c2cnc3c(-c4ccsc4)cnn3c2)cc1,100
CS(=O)(=O)CCNCc1ccc(-c2ccc3ncnc(Nc4ccc(OCc5cccc(F)c5)c(Cl)c4)c3c2)o1,94.8
Cn1cnc2cc3c(Nc4cccc(Br)c4)ncnc3cc21,100
Cc1ccc(NC(=O)c2ccc(CN3CCN(C)CC3)cc2)cc1Nc1nccc(-c2cccnc2)n1,112
C[S+]([O-])c1ccc(-c2nc(-c3ccncc3)c(-c3ccc(F)cc3)[nH]2)cc1 (centres unmarked),101
CC(=O)O/N=C1/C(c2c(O)[nH]c3cc(Br)ccc23)=Nc2ccccc21,108
CCOc1cc2ncnc(Nc3cccc(Br)c3)c2cc1OCC,95.4
Cn1cc(/C=C2\C(=O)Nc3ccc(S(N)(=O)=O)cc32)c2ccccc21,100
O=c1cc(N2CCOCC2)oc2c1ccc1ccccc12,98.9
CCN1/C(=C/C(C)=O)Sc2ccc(OC)cc21,95.5

# Study 3 — host: C57BL/6 CES1-/- mice, EL4 tumour; route: subcutaneous; dose: 0.3 mg/kg/day DON equivalent; time: 5 days
# Compound: CC(=O)N[C@@H](Cc1c[nH]c2ccccc12)C(=O)N[C@@H](CCC(=O)C=[N+]=[N-])C(=O)OC(C)C
method,item,cells,sample,notes,reading,metabolite peak intensity
UPLC-MS/MS metabolomics,N-acetylneuraminate,,EL4 tumour,normalised to tissue mass,higher = more metabolite,9.03e+06 a.u. and 6.24e+06 a.u. and 5.74e+06 a.u. and 7.52e+06 a.u. and 7.72e+06 a.u. and 9.7e+06 a.u.
UPLC-MS/MS,5-methyl-2'-deoxycytidine,,EL4 tumour,,,1.46e+06 a.u. and 2.23e+06 a.u. and 2.29e+06 a.u. and 2.5e+06 a.u. and 4.19e+06 a.u. and 1.54e+06 a.u.
UPLC-MS/MS metabolomics,glucuronate,,EL4 tumour,normalised to tissue mass,,3.55e+06 a.u. and 4.87e+06 a.u. and 3.38e+06 a.u. and 3.77e+06 a.u. and 3.43e+06 a.u.
UPLC-MS/MS,histamine,EL4,tumour,normalised to tissue mass,higher = more metabolite,1.63e+07 a.u. and 3.77e+07 a.u. and 1.79e+07 a.u. and 4.83e+06 a.u. and 2.3e+07 a.u. and 5.98e+06 a.u.
LC-MS/MS metabolomics,maltotriose,,EL4 tumour,,higher = more metabolite,1.37e+06 a.u. and 1.46e+07 a.u. and 2.74e+06 a.u. and 652000 a.u. and 4.16e+06 a.u. and 1.62e+06 a.u.
UPLC-MS/MS metabolomics,glycerate,,EL4 tumour,normalised to tissue mass,,3.31e+08 a.u. and 3.56e+08 a.u. and 3.09e+08 a.u. and 3.43e+08 a.u. and 3.4e+08 a.u. and 3.54e+08 a.u.
LC-MS/MS metabolomics,"2,3-dihydroxyisovalerate",,EL4 tumour,normalised to tissue mass,higher = more metabolite,223000 a.u. and 385000 a.u. and 441000 a.u. and 378000 a.u. and 351000 a.u. and 265000 a.u.
UPLC-MS/MS,5-methyluridine,,EL4 tumour,,,388000 a.u. and 323000 a.u. and 240000 a.u. and 298000 a.u. and 203000 a.u. and 205000 a.u.
LC-MS/MS metabolomics,maltose,,EL4 tumour,,higher = more metabolite,6.49e+06 a.u. and 2.88e+07 a.u. and 1.67e+07 a.u. and 8.35e+06 a.u. and 1.62e+07 a.u. and 4.42e+07 a.u.
UPLC-MS/MS,hydroxymethylpyrimidine,EL4,tumour,normalised to tissue mass,higher = more metabolite,4.26e+06 a.u. and 3.24e+06 a.u. and 5.54e+06 a.u. and 5.24e+06 a.u. and 5.35e+06 a.u. and 3.5e+06 a.u.

# Study 4 — read-out: cell-free assay; method: competition with immobilised ligand; tested at: 1 µM
# Structure (SMILES): C[C@@]1(Cc2ccc(C#N)cc2)C(=O)N(c2cc(Cl)cc(Cl)c2)c2ncc(C(=O)NC3(c4nc(C5CCC5)no4)CC3)n21
target,remaining binding
"Tyrosine-protein kinase ABL1, non-phosphorylated (ABL1, Homo sapiens, UniProt P00519, H396P)",100%
"1-phosphatidylinositol 3-phosphate 5-kinase (PIKFYVE, Homo sapiens, UniProt Q9Y2I7)",100%
"Serine/threonine-protein kinase BRSK1 (BRSK1, Homo sapiens, UniProt Q8TDC3)",100%
"Receptor-interacting serine/threonine-protein kinase 1 (RIPK1, Homo sapiens, UniProt Q13546)",100%
"Serine/threonine-protein kinase PLK2 (PLK2, Homo sapiens, UniProt Q9NYY3)",98%
"SRSF protein kinase 2 (SRPK2, Homo sapiens, UniProt P78362)",100%
"RAC-alpha serine/threonine-protein kinase (AKT1, Homo sapiens, UniProt P31749)",100%
"Serine/threonine-protein kinase Nek10 (NEK10, Homo sapiens, UniProt Q6ZWH5)",100%
"Serine/threonine-protein kinase NLK (NLK, Homo sapiens, UniProt Q9UBE8)",100%
"Uncharacterized serine/threonine-protein kinase SBK3 (SBK3, Homo sapiens, UniProt P0C264)",100%
"Epidermal growth factor receptor (EGFR, Homo sapiens, UniProt P00533, L861Q)",100%
"Mast/stem cell growth factor receptor Kit (KIT, Homo sapiens, UniProt P10721, T670I/V559D)",100%
"Homeodomain-interacting protein kinase 1 (HIPK1, Homo sapiens, UniProt Q86Z02)",100%
"Ribosomal protein S6 kinase alpha-2, C-terminal kinase domain (RPS6KA2, Homo sapiens, UniProt Q15349)",99%

# Excerpt of the above (study 1):
SMILES,nuclei count
COc1ccc(C(=O)c2ccccc2O)c(O)c1,-0.0748 z-score
N#CC(CCCN1CCN(/N=C/c2cccnc2)CC1)(c1ccccc1)c1ccccc1,-0.978 z-score
NC(=O)c1ccc(-c2nc(-c3ccccn3)c(-c3ccc4c(c3)OCO4)[nH]2)cc1,-2.93 z-score
O=C(O)[C@@H]1[C@H](C(=O)O)NCCN1C(=O)c1ccc2c(ccc3ccccc32)c1.O=C(O)[C@H]1NCCN(C(=O)c2ccc3c(ccc4ccccc43)c2)[C@H]1C(=O)O,0.0722 z-score
